Experimental data gathered from unrelated publications.
Each numbered part is a random draw from the data of one study; scales do not carry over between parts.
Sequence of UniProt Q8NG66 (whole entry, looked up): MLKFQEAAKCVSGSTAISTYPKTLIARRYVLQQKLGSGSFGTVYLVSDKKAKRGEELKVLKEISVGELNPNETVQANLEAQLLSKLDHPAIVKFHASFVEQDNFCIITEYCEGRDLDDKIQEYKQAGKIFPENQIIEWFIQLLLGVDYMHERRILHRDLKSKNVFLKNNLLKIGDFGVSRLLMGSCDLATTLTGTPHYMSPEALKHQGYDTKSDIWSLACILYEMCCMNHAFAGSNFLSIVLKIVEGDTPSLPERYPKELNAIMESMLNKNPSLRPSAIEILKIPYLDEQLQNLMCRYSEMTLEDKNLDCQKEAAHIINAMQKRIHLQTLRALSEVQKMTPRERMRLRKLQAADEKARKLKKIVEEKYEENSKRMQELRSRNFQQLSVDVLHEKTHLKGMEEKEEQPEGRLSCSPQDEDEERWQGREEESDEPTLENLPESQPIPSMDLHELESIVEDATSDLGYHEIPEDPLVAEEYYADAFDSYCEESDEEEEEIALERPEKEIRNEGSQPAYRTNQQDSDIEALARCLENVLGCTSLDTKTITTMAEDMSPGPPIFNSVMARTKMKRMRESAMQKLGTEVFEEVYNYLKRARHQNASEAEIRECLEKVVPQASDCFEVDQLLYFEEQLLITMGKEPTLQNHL

Study 1
Target: Histone acetyltransferase KAT6A, both winged helices, GST fusion (KAT6A, Homo sapiens, UniProt Q92794, residues 1-181)
Technique: protein binding microarray
Molecule type: double-stranded DNA, one strand shown
Medium: in vitro
Tested at: not given
Notes: 8-mer, flanks averaged, mean of 2 arrays, mostly near background
Relative to: not given
Direction: higher = stronger binding
Quantity: E-score
Construct (chain): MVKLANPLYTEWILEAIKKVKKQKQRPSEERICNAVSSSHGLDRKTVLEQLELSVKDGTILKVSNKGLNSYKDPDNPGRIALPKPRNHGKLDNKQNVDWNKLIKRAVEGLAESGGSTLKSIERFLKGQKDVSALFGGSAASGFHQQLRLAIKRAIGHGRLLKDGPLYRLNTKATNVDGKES
AACACAAT: -0.164
GTAACGAA: 0.0112
AGTTTCAC: -0.0575
AGAGTGTA: -0.126
AGCGTTTG: -0.0761
GCACCGAC: 0.138
AGTTGATA: -0.0784
CGTGTAAA: 0.116

Study 2
Target: PABPC1L2, full length, GST fusion (mouse, UniProt A0ABA7IW68)
Technique: RNAcompete
Molecule type: RNA
Medium: in vitro
Tested at: 20 nM
Notes: 7-mer, probes averaged, single round
Relative to: mean of 7-mers
Direction: higher = stronger binding
Quantity: 7-mer Z-score
Residues (chain): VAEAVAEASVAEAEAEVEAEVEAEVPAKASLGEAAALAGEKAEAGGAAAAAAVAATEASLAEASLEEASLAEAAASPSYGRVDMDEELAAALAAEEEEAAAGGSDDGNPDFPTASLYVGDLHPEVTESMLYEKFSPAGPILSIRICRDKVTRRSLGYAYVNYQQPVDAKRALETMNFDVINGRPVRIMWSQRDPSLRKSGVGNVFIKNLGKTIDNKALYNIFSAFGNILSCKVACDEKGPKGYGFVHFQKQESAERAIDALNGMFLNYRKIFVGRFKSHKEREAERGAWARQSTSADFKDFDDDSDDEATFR
AGUCCUG: -0.315
GCGACGC: -0.133
GUCGUCU: -0.59
CCUUUCU: -0.55
CGAUGUU: -0.322
GAUGUAU: -0.209
ACGUGAC: -0.142
GUUCUAG: -0.195

Study 3
Target: RNA binding protein fox-1 homolog 2, RRM domain, GST-SBP tag (RBFOX2, Homo sapiens, UniProt O43251-10, residues 100-194)
Technique: RNA Bind-n-Seq
Molecule type: RNA
Medium: in vitro
Tested at: 365 nM
Notes: natural RNA segment, single round, ends assumed
Relative to: no-protein control
Direction: higher = stronger binding
Quantity: RBNS enrichment (R)
All sequences stand within: GGGAGUUCUACAGUCCGACGAUC … UGGAAUUCUCGGGUGCCAA
Target sequence (chain): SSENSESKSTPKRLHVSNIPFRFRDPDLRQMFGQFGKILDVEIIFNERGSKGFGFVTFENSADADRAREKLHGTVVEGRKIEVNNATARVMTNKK
UAGCUCGGACAGUGCAGUGGUGCACAUCAGCAACUUGUAUUUCUUCGGUGUUUGGCACGAGCACUGUCUCGCUGUGGCUGUGUGUCAUGAGAACUUACCAGCAGAAAUCC: 0.552
CUGUAAUAAUGUUUGUGAAUCUUGACUGUAACAAUGUUGGGUUAUUUUUUGUUUGUUUGUUUGUUUAAUUAUGUAAAAAAAAACAAAAACAAAAAAAUAAGAAAAGAAAA: 2.34
GGGCAACACUAAGGUGCUCUUAGAAACACUAAUGUUCCUCUGGGGCAGCCCCCACCUCCGUCCUGACCCGACGGGGGCCCGGCCCACUGCCUACCCUCGAGUCCCGCAGC: 0.16
AAAUUAGAAUCAGCAGCACUGUACAAAUAAAGUGCCUGUGCUUCACCUCACACCAAGAAUCUUGCCUAACCCUGUCAGAGUGCCUAAUAUCCUGUGGUGAUUAUGUAUAA: 0.416
AUGUCUAUAAUAAGAACCUCCCCGCAACCAUACGAAGUAUAACCAUACAUCUAUAGUUCUCCCCCGGGGAGCUAGUGUUUGAACUUUGAAGUCUGCUCAGCUGCAUGGUG: 1.5
GUCACCUGGGUCUGAGAAGCCUUCACUUCCACUUGCCAGAGGGAAGAACUGGCCACCCAUCUGUCAGGCUCUUCCUUGGAAACGAAGAGCAGAGGUGGUCUCUAGGGGGA: 0.985
AACUCACCUGUCAUGCUGUUCCCAGGAGGGACAGCUUGGUAGGAACUUUCUGGGGUUUGACUGUUACACUAGACAUGGAUUUCUAAGCUUUAAGUGUGGUUGGUUUAGGA: 0.436
CCCUGCAGGCCGCAUCAUGGUGGUGUCUAUUGCCGGGGUGGCCACAGGCUGGAUCCGAGUGUCCCCUCUGCAGCAGACGGGGACGCCAGGAUGCGGCUUGGGACUCAGAC: 0.211

Other studies, line by line
O=C(NC(NC(=S)Nc1ccc(F)c([N+](=O)[O-])c1)C(Cl)(Cl)Cl)C(c1ccccc1)c1ccccc1 (stereo not shown)  remaining activity (Serine/threonine-protein kinase Nek11 (NEK11, Homo sapiens, UniProt Q8NG66); enzyme activity, inhibitor; 0.5 µM; relative to: control): 92.2%

Excerpt of the above (study 1):
AGTTTCAC: -0.0575
AGAGTGTA: -0.126
AGCGTTTG: -0.0761
GCACCGAC: 0.138
